Experimental data of several laboratories.

COc1cc2c(C=C3C(=O)Nc4ccccc43)c[nH]c2cc1C
maximum tolerated dose (female athymic nude mouse; intraperitoneal): 400 mg/kg

CN1CCN(c2ccc(Nc3ncc(Cl)c(Nc4ccccc4NS(=O)(=O)C4CC4)n3)cc2)CC1
maximum safe dose (Kunming mouse, both sexes; intravenous, 72 h): < 100 mg/kg

CCCCCCCCC=CCCCCCCCC(=O)OCC1OC(n2ccc(N)nc2=O)C(F)(F)C1O (stereo not drawn)
maximum tolerated dose (BALB/c nude mouse; intraperitoneal, every 3 days, five doses, <10% weight loss): 40 mg/kg

C[C@@H](c1ccccc1)N(CC(N)=O)C(=O)CN(C(=O)CN(CCCCN)C(=O)CN(C(=O)CN(C(=O)CN(CCCCN)C(=O)CN(C(=O)CN(C(=O)CN(CCCCN)C(=O)CN(C(=O)CN(C(=O)CNCCCCN)[C@@H](C)c1ccccc1)[C@@H](C)c1ccccc1)[C@@H](C)c1ccccc1)[C@@H](C)c1ccccc1)[C@@H](C)c1ccccc1)[C@@H](C)c1ccccc1)[C@@H](C)c1ccccc1
maximum tolerated dose (mouse): 2.5 mg/kg

CN(C)C(CNC(=O)Nc1cc(C(F)(F)F)ccc1N1CCOCC1)c1ccncc1 (stereo not drawn)
maximum tolerated dose (C57BL/6J mouse; intraperitoneal, 14 days): 240 mg/kg

O=C1C(P(=O)(O)O)CCCN1O (stereo not drawn)
maximum tolerated dose (nude mouse; intravenous, without neutralization): ≤ 75 mg/kg

CCN(CCCCOc1ccc(CCC(=O)N2CCC(Cc3ccccc3)CC2)cc1O[11CH3])Cc1ccccc1
maximum brain uptake (PET-CT; mouse, brain; intravenous): 7 %ID/cc

Cc1cc2c(cc1O)C=C1C=CC(=O)C(C)(C)[C@H]1CC2
maximum tolerated dose (C57BL/6J mouse both sexes; oral gavage, single dose): ≤ 1000 mg/kg

CC[C@H](C)[C@H](NC(=O)CN)C(=O)NCC(=O)N[C@@H](C)C(=O)N[C@H](C(=O)N[C@@H](CC(C)C)C(=O)N[C@@H](CCCCN)C(=O)N[C@H](C(=O)N[C@@H](CC(C)C)C(=O)N[C@H](C(=O)N[C@H](C(=O)NCC(=O)N[C@@H](CC(C)C)C(=O)N1CCC[C@H]1C(=O)N[C@@H](C)C(=O)N[C@@H](CC(C)C)C(=O)N[C@H](C(=O)N[C@@H](CO)C(=O)N[C@@H](Cc1c[nH]c2ccccc12)C(=O)N[C@H](C(=O)N[C@@H](CCCCN)C(=O)N[C@@H](CCCNC(=N)N)C(=O)N[C@@H](CCCCN)C(=O)N[C@@H](CCCNC(=N)N)C(=O)N[C@@H](CCC(N)=O)C(=O)N[C@@H](CCC(N)=O)C(N)=O)[C@@H](C)CC)[C@@H](C)CC)[C@@H](C)O)[C@@H](C)O)C(C)C)C(C)C
maximum tolerated dose (mouse; intratumoral): 5.7 mg/kg

Repeated from above:
CCN(CCCCOc1ccc(CCC(=O)N2CCC(Cc3ccccc3)CC2)cc1O[11CH3])Cc1ccccc1
maximum brain uptake (PET-CT; mouse, brain; intravenous): 7 %ID/cc

CC[C@H](C)[C@H](NC(=O)CN)C(=O)NCC(=O)N[C@@H](C)C(=O)N[C@H](C(=O)N[C@@H](CC(C)C)C(=O)N[C@@H](CCCCN)C(=O)N[C@H](C(=O)N[C@@H](CC(C)C)C(=O)N[C@H](C(=O)N[C@H](C(=O)NCC(=O)N[C@@H](CC(C)C)C(=O)N1CCC[C@H]1C(=O)N[C@@H](C)C(=O)N[C@@H](CC(C)C)C(=O)N[C@H](C(=O)N[C@@H](CO)C(=O)N[C@@H](Cc1c[nH]c2ccccc12)C(=O)N[C@H](C(=O)N[C@@H](CCCCN)C(=O)N[C@@H](CCCNC(=N)N)C(=O)N[C@@H](CCCCN)C(=O)N[C@@H](CCCNC(=N)N)C(=O)N[C@@H](CCC(N)=O)C(=O)N[C@@H](CCC(N)=O)C(N)=O)[C@@H](C)CC)[C@@H](C)CC)[C@@H](C)O)[C@@H](C)O)C(C)C)C(C)C
maximum tolerated dose (mouse; intratumoral): 5.7 mg/kg
